Assay results of several laboratories.
Each numbered part is a random draw from the data of one study; scales do not carry over between parts. “And” joins repeats or separate records; there may be more than shown.
Sequence of UniProt P00519 (whole entry, unmodified, looked up): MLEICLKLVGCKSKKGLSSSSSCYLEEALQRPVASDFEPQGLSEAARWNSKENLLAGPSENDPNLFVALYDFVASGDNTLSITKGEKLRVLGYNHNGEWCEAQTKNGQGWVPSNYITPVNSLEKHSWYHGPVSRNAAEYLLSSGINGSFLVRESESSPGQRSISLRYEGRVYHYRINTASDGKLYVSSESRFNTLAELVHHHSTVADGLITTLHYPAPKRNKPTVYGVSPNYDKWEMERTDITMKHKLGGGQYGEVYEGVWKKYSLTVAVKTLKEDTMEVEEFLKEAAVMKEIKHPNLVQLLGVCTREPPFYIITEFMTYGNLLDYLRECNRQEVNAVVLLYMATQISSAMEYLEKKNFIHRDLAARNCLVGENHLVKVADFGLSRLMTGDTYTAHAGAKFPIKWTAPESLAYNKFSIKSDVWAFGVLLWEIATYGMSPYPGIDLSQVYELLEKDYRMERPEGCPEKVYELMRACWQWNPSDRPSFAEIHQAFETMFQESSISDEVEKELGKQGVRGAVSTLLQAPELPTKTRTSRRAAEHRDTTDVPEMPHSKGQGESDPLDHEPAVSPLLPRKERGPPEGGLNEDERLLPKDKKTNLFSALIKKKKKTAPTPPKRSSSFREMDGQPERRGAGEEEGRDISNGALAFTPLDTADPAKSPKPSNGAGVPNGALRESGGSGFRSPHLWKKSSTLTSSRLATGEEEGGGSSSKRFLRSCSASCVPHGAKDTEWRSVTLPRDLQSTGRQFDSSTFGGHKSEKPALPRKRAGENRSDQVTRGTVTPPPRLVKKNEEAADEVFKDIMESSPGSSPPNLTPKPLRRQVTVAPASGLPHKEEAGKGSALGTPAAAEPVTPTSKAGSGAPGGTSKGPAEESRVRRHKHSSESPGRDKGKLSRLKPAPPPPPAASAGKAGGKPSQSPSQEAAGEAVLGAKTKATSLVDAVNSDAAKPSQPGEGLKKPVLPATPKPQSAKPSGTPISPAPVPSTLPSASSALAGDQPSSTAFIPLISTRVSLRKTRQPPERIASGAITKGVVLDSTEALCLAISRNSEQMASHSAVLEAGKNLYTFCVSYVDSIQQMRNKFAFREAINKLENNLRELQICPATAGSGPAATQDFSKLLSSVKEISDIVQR
Sequence of UniProt P14416 (whole entry, looked up): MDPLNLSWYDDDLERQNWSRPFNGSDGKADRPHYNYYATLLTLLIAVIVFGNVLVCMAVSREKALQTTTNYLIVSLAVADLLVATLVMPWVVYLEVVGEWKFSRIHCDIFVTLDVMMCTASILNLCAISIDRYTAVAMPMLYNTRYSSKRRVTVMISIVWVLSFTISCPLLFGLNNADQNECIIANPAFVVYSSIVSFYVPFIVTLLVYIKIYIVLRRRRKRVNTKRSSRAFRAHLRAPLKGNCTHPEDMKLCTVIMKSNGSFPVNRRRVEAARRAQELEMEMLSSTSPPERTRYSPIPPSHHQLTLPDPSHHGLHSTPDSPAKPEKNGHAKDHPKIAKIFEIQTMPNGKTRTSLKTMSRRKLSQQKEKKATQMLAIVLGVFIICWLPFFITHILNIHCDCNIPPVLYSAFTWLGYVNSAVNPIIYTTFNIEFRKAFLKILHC

Series 1
Organism: Sarcocystis neurona
Read-out: parasite growth
Tested at: 10 µM
Notes: secondary screen
SMILES | inhibition [%]
c1cnc(N2CCN(Cc3ccc4c(c3)OCO4)CC2)nc1 | -51.3
CCCCc1oc2ccccc2c1C(=O)c1cc(I)c(OCCN(CC)CC)c(I)c1 | -9
CC(C)NCC(O)COc1cccc2[nH]ccc12 (centres unmarked) | -32.1
CCOC(=O)[C@H](CCc1ccccc1)N[C@@H](C)C(=O)N1Cc2ccccc2C[C@H]1C(=O)O | -36.3
CCC1=C(C)CN(C(=O)NCCc2ccc(S(=O)(=O)NC(=O)N[C@H]3CC[C@H](C)CC3)cc2)C1=O | -63.5
CC(C)n1c(/C=C/C(O)CC(O)CC(=O)O)c(-c2ccc(F)cc2)c2ccccc21 (centres unmarked) | -40.5

Series 2
Cell line: mouse MPNST tumor cells
Method: high-content immunofluorescence imaging
Measured: nuclear SOX9
Tested at: 10 µM
Time: 12 h
Notes: mean of 2 replicates
Reference: DMSO control
Reading: higher = more nuclear SOX9
Compound | nuclear SOX9 intensity
COc1cc2nc(N3CCN(C(=O)C4CCCO4)CC3)nc(N)c2cc1OC (centres unmarked) | 115 % of DMSO and 107 % of DMSO
CCN(Cc1ccccc1)C(=O)Cn1c(=O)n(C)c2cnc(-c3ccccc3)nc21 | 92.3 % of DMSO
Nc1cc(F)ccc1NC(=O)/C=C/c1cnn(C/C=C/c2ccccc2)c1 | 125 % of DMSO
CCOC(=O)N1CCC(Nc2c(NCCN3CCN(c4cccc(C(F)(F)F)c4)CC3)c(=O)c2=O)CC1 | 95.7 % of DMSO
CCCCNc1c(C(=O)OCC)c(C)nc2c1cnn2CC | 103 % of DMSO
CCCCOc1ccc(C(=O)CCN2CCCCC2)cc1 | 110 % of DMSO
N=C(N)NS(=O)(=O)c1ccc(N)cc1 | 99.5 % of DMSO
CCCC[P+](CCCC)(CCCC)Cc1ccc(NC(=O)C(Cc2ccc3ccccc3c2)NC(=NC2CCCCC2)NC2CCCCC2)cc1 (centres unmarked) | 140 % of DMSO
C#C[C@]1(O)CC[C@H]2[C@@H]3CCc4cc(O)ccc4[C@H]3CC[C@@]21C | 145 % of DMSO and 160 % of DMSO
CCOC(=O)[C@H](CCc1ccccc1)N[C@@H](C)C(=O)N1CCC[C@H]1C(=O)O | 96.9 % of DMSO
Nc1nccc(/C=C/c2ccccc2)n1 | 78.2 % of DMSO
Cc1ccc(NC(=O)C(C)C)cc1C1CCN(Cc2ccc(Oc3ccc(F)c(F)c3)cc2)CC1 | 220 % of DMSO
CCN(CC)C(=O)N1CCN(C)CC1 | 96 % of DMSO and 94.9 % of DMSO
COC(=O)Nc1ccc(-c2nc(N3CCOCC3)c3cnn(C4CCN(Cc5cccnc5)CC4)c3n2)cc1 | 210 % of DMSO
CC(C)(C)CC(=O)Nc1c(F)cc(C(=O)N=c2sccn2COP(=O)(O)O)cc1F | 97.8 % of DMSO
c1ccc(C(OC2CCN(CCCc3nn[nH]n3)CC2)c2ccccc2)cc1 | 92 % of DMSO
CS(=O)(=O)NCC1CCC(Nc2nc3c(s2)CCSc2ccccc2-3)CC1 (centres unmarked) | 124 % of DMSO
CC(N/C(=N\C#N)Nc1ccncc1)C(C)(C)C (centres unmarked) | 89.7 % of DMSO and 82 % of DMSO
CC(C)Cn1cnc2c(N)nc3ccccc3c21 | 110 % of DMSO
CCC1(c2ccccc2)NC(=O)N(C)C1=O (centres unmarked) | 89.6 % of DMSO and 110 % of DMSO

Series 3
Target: Serine/threonine-protein kinase PAK 4 (PAK4, Homo sapiens, UniProt O96013)
Sequence of UniProt O96013 (whole entry, looked up): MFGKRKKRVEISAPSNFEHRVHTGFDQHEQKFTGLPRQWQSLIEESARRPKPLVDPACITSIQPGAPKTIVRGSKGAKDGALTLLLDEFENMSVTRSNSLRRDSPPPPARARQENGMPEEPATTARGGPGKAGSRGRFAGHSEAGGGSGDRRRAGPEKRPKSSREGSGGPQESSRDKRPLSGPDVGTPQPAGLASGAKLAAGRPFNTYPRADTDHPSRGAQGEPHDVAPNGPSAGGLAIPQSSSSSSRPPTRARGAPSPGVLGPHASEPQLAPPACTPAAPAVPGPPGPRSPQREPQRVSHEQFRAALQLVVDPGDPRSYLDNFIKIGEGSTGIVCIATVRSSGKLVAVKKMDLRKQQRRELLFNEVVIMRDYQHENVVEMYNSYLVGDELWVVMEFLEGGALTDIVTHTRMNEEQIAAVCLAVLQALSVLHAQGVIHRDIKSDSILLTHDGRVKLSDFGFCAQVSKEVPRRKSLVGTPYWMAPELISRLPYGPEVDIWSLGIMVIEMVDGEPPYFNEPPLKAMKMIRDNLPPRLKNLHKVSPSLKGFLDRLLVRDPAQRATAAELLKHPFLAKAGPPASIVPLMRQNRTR
Read-out: enzyme activity
Action: inhibitor
Tested at: 0.5 µM
Reference: control
Compound | remaining activity
N#CC(=C(N)Sc1ccc(N)cc1)c1ccccc1C(F)(F)F | 99.4%
Nc1nc(Nc2ccc(S(N)(=O)=O)cc2)nn1C(=O)c1c(F)cccc1F | 90%
Nc1nccc(-c2c(-c3ccc(F)cc3)ncn2C2CCNCC2)n1 | 95.1%
COc1cc(Nc2c(C#N)cnc3cc(OCCCN4CCN(C)CC4)c(OC)cc23)c(Cl)cc1Cl | 95.8%
Cc1cncc2cccc(S(=O)(=O)N3CCCN(C(=O)CN)C[C@@H]3C)c12 | 99.5%
O=S(=O)(NCCNC/C=C/c1ccc(Br)cc1)c1cccc2cnccc12 | 98.9%
Cc1cc(Nc2nc(-c3ccccc3)nc3ccccc23)n[nH]1 | 84.2%
COc1ccc(S(=O)(=O)N(CCO)c2ccccc2CN(C)CC=Cc2ccc(Cl)cc2)cc1 | 101%
CSc1nc(-c2ccnc(N[C@@H](C)c3ccccc3)c2)c(-c2ccc(F)cc2)[nH]1 (racemic) | 96.4%
CCc1[nH]c(-c2ccc(OC)cc2)nc1-c1ccncc1 | 118%
O=C1Cc2c([nH]c3ccc([N+](=O)[O-])cc23)-c2ccccc2N1 | 93.9%
CCCC(=O)Oc1ccc2[nH]c(C(=O)c3cc4ccccc4[nH]3)cc2c1 | 87.4%
Nc1ncnc2c1cnn2-c1ccccc1 | 86.5%
NC(=O)c1ccc(N(C(N)=O)c2c(F)cccc2F)nc1-c1ccc(F)cc1F | 92.6%
Cc1ccc(NC2=CC(=O)c3sc(C)nc3C2=O)cc1 | 105%
Oc1ccc(Nc2nc(-c3ccc(Cl)cc3)cs2)cc1 | 102%
CC(=O)c1ccc(N2CCOCC2)cc1O | 103%
CC#CC(=O)Nc1cc2c(Nc3ccc(F)c(Cl)c3)ncnc2cn1 | 107%
CC[n+]1c(/C=C/N(C)c2ccccc2)n(-c2ccccc2)c2ccc(-c3nc4ccccc4s3)cc21 | 109%
Fc1ccc(-c2nc3n(c2-c2ccncc2)CCS3)cc1 | 99.1%
CC(C)(C)n1nc(Cc2cccc3ccccc23)c2c(N)ncnc21 | 94.4%

Series 4
Compound: CC(C)(C(=O)O)[C@H](NC(=O)Cc1cccc(I)c1)c1ccc2oc(=O)[nH]c2c1
Method: Incucyte 3D growth
Tested at: 30 µM
Reading: higher = more growth
cell line | time | spheroid area
A375 | 228.52 h | 1.58e+08 a.u. and 1.84e+08 a.u. and 1.79e+08 a.u. and 1.63e+08 a.u. and 1.52e+08 a.u. and 1.69e+08 a.u.
PC-9 | 84 h | 6.36e+08 a.u. and 6.34e+08 a.u. and 6.31e+08 a.u. and 6.09e+08 a.u. and 6.25e+08 a.u. and 6.32e+08 a.u.
A375 | 168.52 h | 1.23e+08 a.u. and 1.14e+08 a.u. and 1.05e+08 a.u. and 1.32e+08 a.u. and 1.24e+08 a.u. and 1.33e+08 a.u.
NCI-H358 | 120 h | 5.24e+06 a.u. and 4.26e+06 a.u. and 4.35e+06 a.u.
PC-9 | 66 h | 5.04e+08 a.u. and 5.08e+08 a.u. and 4.85e+08 a.u. and 5.11e+08 a.u. and 4.91e+08 a.u.
PC-9 | 240 h | 1.91e+09 a.u. and 1.88e+09 a.u. and 1.89e+09 a.u. and 1.87e+09 a.u. and 1.81e+09 a.u. and 1.84e+09 a.u.
PC-9 | 210 h | 1.74e+09 a.u. and 1.7e+09 a.u. and 1.75e+09 a.u. and 1.81e+09 a.u. and 1.78e+09 a.u. and 1.82e+09 a.u.

Mixed results
SMILES | target | read-out | method | tested at | measurement | result
Cn1cncc1[C@@](O)(COc1ccc(C#N)cc1-c1ccc(OC(F)(F)F)cc1)c1ccc(C#N)cc1 | Tyrosine-protein kinase ABL1, non-phosphorylated (ABL1, Homo sapiens, UniProt P00519, F317I) | binding | competition with immobilised ligand | 1 µM | remaining binding | 100%
COc1cccc(NC(=O)c2nc3scc(CN(C)Cc4ccccc4)c3c(=O)[nH]2)c1 | DRD2 (Homo sapiens, UniProt P14416) | ligand displacement | – | 10 µM | inhibition | 12.5%

Excerpt of the above (series 4):
cell line | time | spheroid area
PC-9 | 240 h | 1.91e+09 a.u. and 1.88e+09 a.u. and 1.89e+09 a.u. and 1.87e+09 a.u. and 1.81e+09 a.u. and 1.84e+09 a.u.
A375 | 168.52 h | 1.23e+08 a.u. and 1.14e+08 a.u. and 1.05e+08 a.u. and 1.32e+08 a.u. and 1.24e+08 a.u. and 1.33e+08 a.u.
PC-9 | 84 h | 6.36e+08 a.u. and 6.34e+08 a.u. and 6.31e+08 a.u. and 6.09e+08 a.u. and 6.25e+08 a.u. and 6.32e+08 a.u.
PC-9 | 210 h | 1.74e+09 a.u. and 1.7e+09 a.u. and 1.75e+09 a.u. and 1.81e+09 a.u. and 1.78e+09 a.u. and 1.82e+09 a.u.
PC-9 | 66 h | 5.04e+08 a.u. and 5.08e+08 a.u. and 4.85e+08 a.u. and 5.11e+08 a.u. and 4.91e+08 a.u.
NCI-H358 | 120 h | 5.24e+06 a.u. and 4.26e+06 a.u. and 4.35e+06 a.u.
A375 | 228.52 h | 1.58e+08 a.u. and 1.84e+08 a.u. and 1.79e+08 a.u. and 1.63e+08 a.u. and 1.52e+08 a.u. and 1.69e+08 a.u.
